Published values from different studies.
Each numbered part is a random draw from the data of one study; scales do not carry over between parts. Changes are numbered by the printed parent chain.
UniProt Q9UKE5, sequence (whole entry, looked up): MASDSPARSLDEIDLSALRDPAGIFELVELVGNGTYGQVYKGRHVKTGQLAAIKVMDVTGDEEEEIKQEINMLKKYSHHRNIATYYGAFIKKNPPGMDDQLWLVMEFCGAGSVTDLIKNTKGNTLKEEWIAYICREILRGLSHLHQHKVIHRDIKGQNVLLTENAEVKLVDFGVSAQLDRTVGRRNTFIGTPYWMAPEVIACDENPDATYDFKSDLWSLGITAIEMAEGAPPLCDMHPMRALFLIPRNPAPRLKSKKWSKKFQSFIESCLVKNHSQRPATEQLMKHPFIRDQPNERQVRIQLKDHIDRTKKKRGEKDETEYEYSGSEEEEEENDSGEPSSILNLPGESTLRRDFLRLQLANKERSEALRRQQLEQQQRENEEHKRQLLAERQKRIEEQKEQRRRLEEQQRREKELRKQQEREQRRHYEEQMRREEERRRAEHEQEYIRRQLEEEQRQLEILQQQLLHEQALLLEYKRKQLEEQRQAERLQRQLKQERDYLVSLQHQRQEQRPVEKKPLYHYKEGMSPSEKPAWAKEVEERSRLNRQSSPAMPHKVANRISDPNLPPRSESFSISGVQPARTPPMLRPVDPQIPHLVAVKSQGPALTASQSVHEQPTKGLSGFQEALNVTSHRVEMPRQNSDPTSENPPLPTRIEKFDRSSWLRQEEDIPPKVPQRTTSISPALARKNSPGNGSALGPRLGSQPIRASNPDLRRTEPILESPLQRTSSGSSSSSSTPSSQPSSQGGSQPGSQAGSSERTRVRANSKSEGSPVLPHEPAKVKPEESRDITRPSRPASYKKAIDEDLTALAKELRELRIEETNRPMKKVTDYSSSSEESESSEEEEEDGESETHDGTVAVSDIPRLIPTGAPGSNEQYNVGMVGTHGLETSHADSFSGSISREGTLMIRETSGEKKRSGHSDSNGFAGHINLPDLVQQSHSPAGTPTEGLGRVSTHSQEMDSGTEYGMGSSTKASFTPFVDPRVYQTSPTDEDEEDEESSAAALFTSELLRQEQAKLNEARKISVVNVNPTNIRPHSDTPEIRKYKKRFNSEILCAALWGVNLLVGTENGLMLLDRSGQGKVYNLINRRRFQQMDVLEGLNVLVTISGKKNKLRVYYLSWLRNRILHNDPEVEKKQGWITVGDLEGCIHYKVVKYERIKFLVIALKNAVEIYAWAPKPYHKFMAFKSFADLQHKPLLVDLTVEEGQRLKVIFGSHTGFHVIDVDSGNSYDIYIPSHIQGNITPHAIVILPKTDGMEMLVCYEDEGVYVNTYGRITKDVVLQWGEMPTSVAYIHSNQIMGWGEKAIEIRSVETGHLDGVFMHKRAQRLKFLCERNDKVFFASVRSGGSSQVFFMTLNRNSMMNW
UniProt O15197, sequence (whole entry, looked up): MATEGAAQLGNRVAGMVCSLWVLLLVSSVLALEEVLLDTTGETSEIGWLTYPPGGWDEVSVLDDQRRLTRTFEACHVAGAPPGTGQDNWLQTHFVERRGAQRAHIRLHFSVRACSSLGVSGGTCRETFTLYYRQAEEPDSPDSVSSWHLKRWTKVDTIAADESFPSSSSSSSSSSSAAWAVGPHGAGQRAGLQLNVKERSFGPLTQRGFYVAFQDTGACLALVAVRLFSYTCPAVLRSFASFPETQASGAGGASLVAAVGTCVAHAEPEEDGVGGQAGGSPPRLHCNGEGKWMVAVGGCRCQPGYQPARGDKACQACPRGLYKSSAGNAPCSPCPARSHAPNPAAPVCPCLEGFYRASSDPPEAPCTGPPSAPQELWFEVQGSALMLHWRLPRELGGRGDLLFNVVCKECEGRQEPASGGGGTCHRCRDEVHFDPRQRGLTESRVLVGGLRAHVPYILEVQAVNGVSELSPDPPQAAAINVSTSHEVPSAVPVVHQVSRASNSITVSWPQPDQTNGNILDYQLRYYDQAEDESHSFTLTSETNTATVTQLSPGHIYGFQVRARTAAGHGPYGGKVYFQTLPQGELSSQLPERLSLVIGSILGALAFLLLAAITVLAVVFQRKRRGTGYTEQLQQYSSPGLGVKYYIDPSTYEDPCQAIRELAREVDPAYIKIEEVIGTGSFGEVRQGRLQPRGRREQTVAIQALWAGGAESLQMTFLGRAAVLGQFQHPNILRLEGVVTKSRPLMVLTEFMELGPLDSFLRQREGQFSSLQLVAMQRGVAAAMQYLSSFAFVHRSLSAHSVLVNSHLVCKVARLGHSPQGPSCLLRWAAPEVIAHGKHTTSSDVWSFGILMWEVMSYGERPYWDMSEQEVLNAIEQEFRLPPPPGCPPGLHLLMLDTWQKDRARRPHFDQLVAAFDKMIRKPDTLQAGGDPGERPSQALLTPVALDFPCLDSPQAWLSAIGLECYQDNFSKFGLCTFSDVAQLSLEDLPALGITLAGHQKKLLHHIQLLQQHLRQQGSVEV
UniProt O75676, sequence (whole entry, looked up): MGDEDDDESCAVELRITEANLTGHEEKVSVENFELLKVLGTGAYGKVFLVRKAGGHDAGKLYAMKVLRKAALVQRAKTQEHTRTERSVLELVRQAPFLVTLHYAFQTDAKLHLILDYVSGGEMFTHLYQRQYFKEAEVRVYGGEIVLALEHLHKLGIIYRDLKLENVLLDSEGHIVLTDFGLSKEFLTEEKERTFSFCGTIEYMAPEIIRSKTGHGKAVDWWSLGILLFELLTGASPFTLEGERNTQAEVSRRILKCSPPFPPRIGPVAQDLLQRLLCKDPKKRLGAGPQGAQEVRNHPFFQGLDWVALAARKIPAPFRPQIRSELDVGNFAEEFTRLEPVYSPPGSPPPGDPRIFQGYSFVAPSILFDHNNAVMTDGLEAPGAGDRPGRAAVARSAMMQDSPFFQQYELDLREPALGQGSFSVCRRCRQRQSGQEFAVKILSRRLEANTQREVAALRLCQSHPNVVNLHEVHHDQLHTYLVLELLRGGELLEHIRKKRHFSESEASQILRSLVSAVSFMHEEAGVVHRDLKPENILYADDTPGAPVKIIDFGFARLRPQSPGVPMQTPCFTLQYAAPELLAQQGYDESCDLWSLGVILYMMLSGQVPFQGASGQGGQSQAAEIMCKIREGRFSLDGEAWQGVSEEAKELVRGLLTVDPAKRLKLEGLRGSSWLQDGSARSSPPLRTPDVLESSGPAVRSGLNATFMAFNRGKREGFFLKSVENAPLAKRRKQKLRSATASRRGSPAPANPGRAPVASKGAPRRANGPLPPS
UniProt Q9P2K8, sequence (whole entry, unmodified, looked up): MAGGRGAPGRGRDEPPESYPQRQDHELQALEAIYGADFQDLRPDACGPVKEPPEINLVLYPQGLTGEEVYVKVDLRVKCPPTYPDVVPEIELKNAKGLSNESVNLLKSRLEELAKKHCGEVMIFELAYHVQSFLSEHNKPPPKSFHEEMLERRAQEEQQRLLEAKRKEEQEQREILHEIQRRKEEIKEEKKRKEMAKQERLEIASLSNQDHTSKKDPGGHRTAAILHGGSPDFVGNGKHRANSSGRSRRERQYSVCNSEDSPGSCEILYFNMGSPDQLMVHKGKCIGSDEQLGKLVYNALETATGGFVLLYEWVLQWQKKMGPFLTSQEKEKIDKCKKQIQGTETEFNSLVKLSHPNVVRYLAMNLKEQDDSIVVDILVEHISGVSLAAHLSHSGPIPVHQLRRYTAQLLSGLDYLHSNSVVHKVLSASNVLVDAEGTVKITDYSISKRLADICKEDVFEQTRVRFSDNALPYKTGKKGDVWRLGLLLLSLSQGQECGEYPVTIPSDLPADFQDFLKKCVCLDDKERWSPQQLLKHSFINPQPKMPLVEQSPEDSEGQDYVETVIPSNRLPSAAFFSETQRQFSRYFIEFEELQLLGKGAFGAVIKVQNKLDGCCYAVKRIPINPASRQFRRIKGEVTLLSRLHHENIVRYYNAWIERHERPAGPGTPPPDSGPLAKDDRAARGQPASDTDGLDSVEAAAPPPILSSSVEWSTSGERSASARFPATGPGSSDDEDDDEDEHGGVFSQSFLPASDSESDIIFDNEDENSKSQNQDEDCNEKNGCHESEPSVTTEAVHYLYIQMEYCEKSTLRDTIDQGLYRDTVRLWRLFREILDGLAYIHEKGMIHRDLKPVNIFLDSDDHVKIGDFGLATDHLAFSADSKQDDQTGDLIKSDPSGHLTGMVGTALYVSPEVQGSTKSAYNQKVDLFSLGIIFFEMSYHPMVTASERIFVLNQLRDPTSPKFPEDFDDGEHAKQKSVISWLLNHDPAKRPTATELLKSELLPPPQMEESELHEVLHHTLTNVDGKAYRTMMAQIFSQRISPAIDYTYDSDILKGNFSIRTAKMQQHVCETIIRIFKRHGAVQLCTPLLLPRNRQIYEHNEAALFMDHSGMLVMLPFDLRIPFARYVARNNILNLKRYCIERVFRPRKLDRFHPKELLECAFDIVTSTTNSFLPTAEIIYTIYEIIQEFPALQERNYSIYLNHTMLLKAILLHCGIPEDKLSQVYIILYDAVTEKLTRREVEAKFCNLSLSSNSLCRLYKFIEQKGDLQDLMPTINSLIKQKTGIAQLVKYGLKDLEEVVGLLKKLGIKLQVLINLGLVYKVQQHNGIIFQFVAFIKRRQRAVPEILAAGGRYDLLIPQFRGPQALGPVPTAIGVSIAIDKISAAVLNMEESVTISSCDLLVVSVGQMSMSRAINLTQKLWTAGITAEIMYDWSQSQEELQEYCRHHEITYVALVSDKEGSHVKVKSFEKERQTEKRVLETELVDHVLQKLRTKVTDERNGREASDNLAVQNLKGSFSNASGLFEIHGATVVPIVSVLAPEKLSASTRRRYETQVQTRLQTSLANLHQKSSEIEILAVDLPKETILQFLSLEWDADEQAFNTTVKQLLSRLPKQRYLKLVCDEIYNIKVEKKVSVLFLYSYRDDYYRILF
UniProt P61075, sequence (whole entry, looked up): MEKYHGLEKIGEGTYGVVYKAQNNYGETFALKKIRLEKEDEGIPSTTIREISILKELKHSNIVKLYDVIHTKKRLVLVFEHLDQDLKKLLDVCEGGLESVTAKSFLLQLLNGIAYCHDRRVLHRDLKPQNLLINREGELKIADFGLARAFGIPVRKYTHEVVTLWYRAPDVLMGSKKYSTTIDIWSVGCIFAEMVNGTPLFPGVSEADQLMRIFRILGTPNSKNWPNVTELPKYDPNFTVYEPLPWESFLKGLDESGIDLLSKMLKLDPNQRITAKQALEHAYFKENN

Block 1
Target: CCNF, cyclin fold, Cln2 fusion (human)
Method: yeast growth competition, sequencing
Sample: yeast
Notes: strong parent motif
Relative to: not given
Reading: higher = stronger binding
Starting sequence: viral docking peptide; YKVKRRLVFGADD; partner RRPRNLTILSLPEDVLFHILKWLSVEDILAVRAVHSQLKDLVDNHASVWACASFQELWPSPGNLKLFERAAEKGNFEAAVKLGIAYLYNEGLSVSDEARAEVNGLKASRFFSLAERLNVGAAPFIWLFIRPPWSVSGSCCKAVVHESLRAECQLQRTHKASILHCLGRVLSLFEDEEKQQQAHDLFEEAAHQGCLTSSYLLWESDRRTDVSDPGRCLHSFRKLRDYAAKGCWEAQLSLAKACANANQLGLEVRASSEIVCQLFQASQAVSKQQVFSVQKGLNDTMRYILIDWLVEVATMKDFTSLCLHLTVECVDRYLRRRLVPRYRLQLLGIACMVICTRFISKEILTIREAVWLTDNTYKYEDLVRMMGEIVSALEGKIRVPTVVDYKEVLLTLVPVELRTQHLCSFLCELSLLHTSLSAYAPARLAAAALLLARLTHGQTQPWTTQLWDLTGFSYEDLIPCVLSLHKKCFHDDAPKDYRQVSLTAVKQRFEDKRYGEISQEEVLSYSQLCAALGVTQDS
Under “normalised enrichment score”, `YKCKRRLVFGADD [V3C]` is recorded as 8.36.
`YKVKRVLVFGADD [R6V]`: “normalised enrichment score” 8.74.
Under “normalised enrichment score”, `YKVKRRLVFGAFD [D12F]` is recorded as 9.35.
`YIVKRRLVFGADD [K2I]` — result for “normalised enrichment score”: 8.61.
For `YKVKRGLVFGADD [R6G]`, “normalised enrichment score” read 7.04.
For `YWVKRRLVFGADD [K2W]`, “normalised enrichment score” read 9.28.
`YKVKARLVFGADD [R5A]`: “normalised enrichment score” 3.21.
For `YCVKRRLVFGADD [K2C]`, “normalised enrichment score” read 8.42.

Block 2
Target: HLA class I histocompatibility antigen, C alpha chain, allele C*04:01 (Homo sapiens, UniProt P10321)
Observed: peptide-MHC binding
Molecule type: peptide
Tested at: concentration not given
`ILFDRLPIA`: binding “inactive”.
For `STMPLVMAW`, binding read “inactive”.
Under binding, `KVYWAGIEF` is recorded as “inactive”.
`YQLEMYHPI`: binding “inactive”.
`VYYIVVRDF`: binding “inactive”.
`MTMLIKAFK`: binding “inactive”.
`LTIPTIMGR`: binding “inactive”.
`IYASRPLDF`: binding “inactive”.

Block 3
Structure (SMILES): N#CC1(c2ccccn2)CCN(Cc2cc(C(=O)O)c(=O)n3ccccc23)CC1
Method: competition with immobilised ligand
Tested at: 1 µM
The remaining binding was 100% (Myosin-IIIa (MYO3A, Homo sapiens, UniProt Q8NEV4); binding).
It gave 100% for remaining binding (eIF-2-alpha kinase GCN2, C-terminal kinase domain (EIF2AK4, Homo sapiens, UniProt Q9P2K8, S808G); cell-free assay).
The remaining binding was 97% (MAK (Homo sapiens, UniProt P20794); cell-free assay).
It gave 80% for remaining binding (EGFR (Homo sapiens, UniProt P00533, A750P/del747-749); cell-free assay).
EIF2AK2 (Homo sapiens, UniProt P19525); cell-free assay — remaining binding: 95%.
The remaining binding was 97% (EGFR (Homo sapiens, UniProt P00533, del747-750/T751S); cell-free assay).
For TNIK (Homo sapiens, UniProt Q9UKE5); cell-free assay: remaining binding read 100%.
For EPHB6 (Homo sapiens, UniProt O15197); cell-free assay: remaining binding read 73%.
For FLT3 (Homo sapiens, UniProt P36888, D835Y); cell-free assay: remaining binding read 95%.
For Ribosomal protein S6 kinase alpha-4, N-terminal kinase domain (RPS6KA4, Homo sapiens, UniProt O75676); cell-free assay: remaining binding read 94%.
The remaining binding was 94% (FGR (Homo sapiens, UniProt P09769); cell-free assay).
The remaining binding was 100% (MARK2 (Homo sapiens, UniProt Q7KZI7); cell-free assay).
CRK2 (Plasmodium falciparum, UniProt P61075); cell-free assay — remaining binding: 68%.
For STK32A (Homo sapiens, UniProt Q8WU08); cell-free assay: remaining binding read 90%.
PDGFRA (Homo sapiens, UniProt P16234); cell-free assay — remaining binding: 90%.
For CDK14 (Homo sapiens, UniProt O94921); cell-free assay: remaining binding read 100%.
EGFR (Homo sapiens, UniProt P00533, G719C); cell-free assay — remaining binding: 100%.

Mixed results
The remaining activity of `O=C1NC(=O)c2c1c1c3ccccc3n3c1c1c2c2ccccc2n1[C@H]1CC[C@@H]3O1` is reported as 4.01% (Myosin light chain kinase, smooth muscle (MYLK, Homo sapiens, UniProt Q15746); enzyme activity, inhibitor; 0.5 µM; relative to: control).

Repeated from above (block 3):
EIF2AK2 (Homo sapiens, UniProt P19525); cell-free assay — remaining binding: 95%.
The remaining binding was 97% (EGFR (Homo sapiens, UniProt P00533, del747-750/T751S); cell-free assay).
For TNIK (Homo sapiens, UniProt Q9UKE5); cell-free assay: remaining binding read 100%.
For EPHB6 (Homo sapiens, UniProt O15197); cell-free assay: remaining binding read 73%.
For FLT3 (Homo sapiens, UniProt P36888, D835Y); cell-free assay: remaining binding read 95%.
